Results collected from several papers.
Each numbered part is a random draw from the data of one study; scales do not carry over between parts. Positions count from the first letter of the parent shown.

Block 1
Target: CCNB2, cyclin fold, Cln2 fusion (human)
Method: yeast growth competition, sequencing
Matrix: yeast
Notes: weak parent motif
Baseline: not given
Reading: higher = stronger binding
Parent: E2F3 docking peptide (human); PPAKRRLELGESG; partner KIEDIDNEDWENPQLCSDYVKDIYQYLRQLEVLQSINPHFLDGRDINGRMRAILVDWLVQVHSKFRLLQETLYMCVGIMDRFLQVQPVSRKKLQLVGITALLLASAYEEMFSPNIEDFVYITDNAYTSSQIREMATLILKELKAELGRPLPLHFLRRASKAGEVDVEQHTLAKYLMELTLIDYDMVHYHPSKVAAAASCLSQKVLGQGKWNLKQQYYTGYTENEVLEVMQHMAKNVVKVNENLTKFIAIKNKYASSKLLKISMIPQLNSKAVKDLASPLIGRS
| Substitution | normalised enrichment score |
| --- | --- |
| K4A | 0.229 |
| L9F | 1.08 |
| E11A | 0.562 |
| P2A | 0.26 |
| G10A | 0.413 |
| G13A | 0.0521 |
| L9A | 0.232 |

Block 2
Target: RING finger protein unkempt homolog, zinc fingers 1-6, GST-SBP tag (UNK, Homo sapiens, UniProt Q9C0B0, residues 30-357)
Method: RNA Bind-n-Seq
Form: RNA
Matrix: in vitro
Tested at: not given
Notes: RNA with constant flanks, ends assumed
Baseline: input RNA pool
Reading: higher = stronger binding
Constant ends, left off below: GGGAGUUCUACAGUCCGACGAUC … CAACAGAGGAUUGAGCAUCA
Target sequence (chain): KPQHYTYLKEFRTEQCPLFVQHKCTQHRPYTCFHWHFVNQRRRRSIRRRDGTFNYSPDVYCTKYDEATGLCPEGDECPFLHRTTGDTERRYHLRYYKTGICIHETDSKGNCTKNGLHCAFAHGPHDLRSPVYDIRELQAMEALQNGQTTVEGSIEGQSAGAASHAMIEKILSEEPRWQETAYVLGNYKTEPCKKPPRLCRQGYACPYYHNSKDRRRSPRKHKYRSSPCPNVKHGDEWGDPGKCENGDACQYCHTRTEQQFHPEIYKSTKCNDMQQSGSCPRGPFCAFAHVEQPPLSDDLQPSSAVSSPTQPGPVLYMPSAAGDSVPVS
| Sequence | bound/input enrichment [ratio] |
| --- | --- |
| AUCGUGGAGUAUCAGAAUAAGGGCCGAGCGAACGAGUGCGUCCAGUAUCAGCAUGUGUUACACCGAAAUCUCAUUUAUUUAGCUACCAUCGCAGACGCCAACACAAGCAGUCUCACAAAG | 0.278 |
| UGCGUCACAUGGGAAAUAAAUCCUGAGGCCAGGAUCACCAGUGGGGUAGAGUCAUCUUCACCGUCUCCUGUUAUCCUCCCCCUGAACAAAGAACAAAGUGAGACUGGGAAGCUAGUGUUG | 0.25 |
| UUUUUUUUUCCUCUUAACUCUGUCUGCUCUUAAAGCCAGGCAACCCAGUUUGGUCUCAGGCACCGCCUGAGCAGAUCUUAGUUUUGCCCCCACCACCAUAGUUUUGUGCUAUCCUAGUUU | 5.61 |
| AUGUUUGAACGUGUUUCAGAUGUCAUGUGUUUAGUUUUUAUAUGUGUGUACAUAAUUAUAUACCGAGAUAGACUUGUGUAUACACCUUCCACAAACACAUCCUCACGGAGAUACAUGUGC | 0.311 |
| UUUAUUUUUAUUUUUAUUUUAUUUAUUUAAAAAUCUUGAUCUUUUUUACUUGUUUCAUCACACCGCUCAGAGUAGGUCCUCAGAAAUUGUUCAUGAUUUUUAAAACAAAGGCCUUGGGCA | 3.72 |
| UGAGCCCCGAGCCCGGCGCGGUCCCCGCAAGAUGGACGGUUUCGCCGGCAGCCUCGAUGACCGUAUUUCUGCUGCAAGUACCUCUGACGUUCAAGACCGCCUCUCAGCUCUUGAGUCACG | 0.0917 |
| AAAAGCACAAGUGUUCGAACUUCAACUUUUUACUCCAGACUGAGGCUACCCAGGGACAGACUCCGUGGCAGCAGGGUUGCAUCAGCACUGGUCACUCCAGUCCAGCCUGUGUGUAAAAUC | 0.0922 |
| AAAUAAAUAUUUAAUUUUUUAAAUUGCUCUUGUAUAAUCAGAUGCCCCUUUUAGUAUUAUUUCCGAAGCGUUGGGAGGGUUUUGCCUAAAGUACAAUUUAUCGGGAAAAACUAGAUUUUA | 8.35 |
| UGGGAUGAAAAUCUAAAAGAUGAUUCUCUUCCUUCAAAUCCAAUAGAUUUUUCUUACAGAGCCGCUGCUUGUCUUCCUAUUGAUGAUGUAUUGAGAAUUCAGCUCCUUAAAAUUGGCAGU | 0.41 |
| UUUGAAGAAGGUGUGGGGAAACCUGCCAAGCAACUCCAAGAUCUGAGGAAUGCAUCCCGACUUAUUCGUGUGAAUCCUGAAAGUACAACAUCAGUGGUCUAAUGCUUGGGUCUGUUUAUA | 0.0645 |
| GCAAAUUUUGCCAGAAAUGAUGCAAAUUGUAUUCAUAUGGUAGACAAUGGGAUUGCCGAAAAACUUAUGGAUUUACUGGACAGACAUGUAGAAGAUGGAAAUGUAACAGUACAGCAUGCA | 0.61 |

Block 3
Target: NFIL3, bZIP domain (human)
Method: DHFR protein complementation
Matrix: yeast
Notes: single substitutions, most at no-binding floor
Baseline: wild-type JUN-FOS pair
Reading: higher = stronger binding
Parent: JUN, bZIP domain (human); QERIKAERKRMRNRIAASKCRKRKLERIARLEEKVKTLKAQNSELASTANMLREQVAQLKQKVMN; partner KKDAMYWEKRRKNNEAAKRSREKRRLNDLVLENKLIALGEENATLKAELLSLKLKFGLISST
| Substitution | binding fitness [natural log] |
| --- | --- |
| S43Q | -1.42 |
| N42M | -1.52 |
| L59C | -1.41 |
| S43C | -1.52 |
| A57Q | -1.46 |
| I28N | -1.36 |
| A29S | -1.44 |
| V56E | -1.47 |
| A29I | -1.36 |
| S43H | -1.47 |
| A29T | -1.34 |
| E54S | -1.33 |
| T48F | -1.5 |
| I28Q | -1.33 |

Block 4
Target: Sal-like protein 4, full length isoform A (SALL4, Homo sapiens, UniProt Q9UJQ4, residues 1-1053)
Sequence of UniProt Q9UJQ4 (whole entry, looked up): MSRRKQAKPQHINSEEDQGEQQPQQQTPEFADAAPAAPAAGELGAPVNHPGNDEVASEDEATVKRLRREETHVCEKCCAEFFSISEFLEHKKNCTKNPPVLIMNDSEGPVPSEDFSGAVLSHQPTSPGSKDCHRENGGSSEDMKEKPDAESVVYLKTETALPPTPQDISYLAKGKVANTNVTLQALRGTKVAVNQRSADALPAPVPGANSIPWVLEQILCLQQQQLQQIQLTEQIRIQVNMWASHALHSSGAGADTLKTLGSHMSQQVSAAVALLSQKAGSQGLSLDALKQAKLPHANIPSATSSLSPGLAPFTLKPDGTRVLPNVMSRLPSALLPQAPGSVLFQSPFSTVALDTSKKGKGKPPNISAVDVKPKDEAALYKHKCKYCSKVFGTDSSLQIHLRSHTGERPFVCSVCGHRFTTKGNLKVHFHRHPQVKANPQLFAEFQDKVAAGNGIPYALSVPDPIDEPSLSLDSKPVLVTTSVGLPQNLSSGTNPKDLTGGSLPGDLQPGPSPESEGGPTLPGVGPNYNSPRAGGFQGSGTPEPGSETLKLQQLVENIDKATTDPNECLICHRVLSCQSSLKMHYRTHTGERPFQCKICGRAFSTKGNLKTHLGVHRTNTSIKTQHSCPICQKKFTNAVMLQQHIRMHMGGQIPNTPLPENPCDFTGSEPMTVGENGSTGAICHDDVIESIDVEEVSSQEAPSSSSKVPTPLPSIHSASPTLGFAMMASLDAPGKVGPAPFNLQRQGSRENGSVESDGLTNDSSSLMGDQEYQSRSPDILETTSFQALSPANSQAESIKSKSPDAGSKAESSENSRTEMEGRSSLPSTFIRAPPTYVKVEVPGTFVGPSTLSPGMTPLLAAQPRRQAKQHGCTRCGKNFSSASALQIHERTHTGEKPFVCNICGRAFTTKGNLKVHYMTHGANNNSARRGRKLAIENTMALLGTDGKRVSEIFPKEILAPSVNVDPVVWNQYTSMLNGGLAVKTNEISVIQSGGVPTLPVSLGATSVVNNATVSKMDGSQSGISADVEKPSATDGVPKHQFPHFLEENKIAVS
Method: universal PBM
Form: double-stranded DNA, one strand shown
Matrix: in vitro
Tested at: 600 nM
Notes: 8-mer, flanks averaged, mean of replicates
Reading: higher = stronger binding
| Sequence | E-score |
| --- | --- |
| AGATTGCG | 0.0396 |
| ATACTTCG | 0.225 |
| AGGATAAG | -0.114 |
| CTACAACC | 0.0302 |
| AATTGGAC | 0.14 |
| AACGAGAG | 0.125 |
| AATGTGGC | -0.0904 |
| GAGGTCGC | -0.289 |
| GTACGACA | 0.0206 |
| ATATGCGG | 0.233 |
| CTTTTTGC | -0.117 |
| ACTCAGAT | 0.0946 |
| CTAACACA | 0.0851 |
| AATTGCAA | 0.271 |
| CGCATGAA | -0.0309 |
| CAGGCATA | -0.00999 |
| CCGGGTCG | -0.389 |
| TACCCGAA | 0.119 |
| GCAACGAA | -0.0264 |
| CCTTAGGA | -0.0538 |
| AAACCTAG | -0.0379 |
| CACCTCAC | -0.0609 |
| GGACCTCC | -0.364 |
| TACGGACA | 0.0155 |

Block 5
Target: ABI1, truncated, D143A, DHFR fusion (Arabidopsis thaliana)
Method: DHFR PCA, deep sequencing
Matrix: yeast
Notes: methotrexate growth selection, single substitutions
Together with: (+)-ABA 0 µM
Baseline: wild-type fitted maximum
Reading: higher = stronger binding
Parent: PYL1, truncated, DHFR fusion (Arabidopsis thaliana); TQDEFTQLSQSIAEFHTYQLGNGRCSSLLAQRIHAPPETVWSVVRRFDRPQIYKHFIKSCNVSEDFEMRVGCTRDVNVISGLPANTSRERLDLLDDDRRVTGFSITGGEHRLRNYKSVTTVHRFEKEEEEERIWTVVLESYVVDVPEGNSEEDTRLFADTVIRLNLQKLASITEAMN; partner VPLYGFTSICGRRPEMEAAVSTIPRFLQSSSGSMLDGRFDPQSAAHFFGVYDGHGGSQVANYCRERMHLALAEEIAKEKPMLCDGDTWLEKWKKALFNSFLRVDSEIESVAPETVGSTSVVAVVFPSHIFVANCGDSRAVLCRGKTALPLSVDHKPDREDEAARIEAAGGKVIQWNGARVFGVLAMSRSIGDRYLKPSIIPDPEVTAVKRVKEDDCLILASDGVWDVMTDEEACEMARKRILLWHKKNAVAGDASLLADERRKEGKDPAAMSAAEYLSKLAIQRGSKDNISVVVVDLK
| Substitution | relative binding score [%] |
| --- | --- |
| Y53K | -13 |
| V62C | 4.26 |
| L138Y | 2.81 |
| T1C | 24 |
| L93E | 0.0143 |
| N177Q | 21.4 |
| T154P | -5.09 |
| T1E | 23.8 |
| R98P | -3.88 |
| E38Q | -2.29 |
| L94R | 0.14 |
| C60D | -11.9 |
| G108R | -0.448 |
| L164A | 13.9 |

Block 6
Target: Interferon regulatory factor 7, full length, phosphomimetic (IRF7, Homo sapiens, UniProt Q92985, residues 1-503, S101K/S471D/S472D/S475D/S476D/S477D/S483D/S484D/S487D)
Sequence of UniProt Q92985 (whole entry, unmodified, looked up): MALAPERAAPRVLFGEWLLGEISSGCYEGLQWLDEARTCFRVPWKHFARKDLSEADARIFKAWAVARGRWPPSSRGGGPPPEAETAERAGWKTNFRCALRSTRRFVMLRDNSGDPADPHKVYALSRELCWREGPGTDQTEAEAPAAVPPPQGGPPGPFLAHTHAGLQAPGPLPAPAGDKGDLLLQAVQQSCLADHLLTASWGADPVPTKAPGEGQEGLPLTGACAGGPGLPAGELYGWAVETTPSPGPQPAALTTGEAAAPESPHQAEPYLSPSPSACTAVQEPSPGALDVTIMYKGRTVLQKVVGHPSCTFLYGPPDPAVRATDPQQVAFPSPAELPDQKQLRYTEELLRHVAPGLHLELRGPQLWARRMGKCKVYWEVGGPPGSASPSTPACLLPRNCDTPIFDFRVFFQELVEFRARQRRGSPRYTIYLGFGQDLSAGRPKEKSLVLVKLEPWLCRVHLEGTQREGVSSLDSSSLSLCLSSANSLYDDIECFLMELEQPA
Method: protein-binding microarray
Form: double-stranded DNA, one strand shown
Matrix: in vitro
Tested at: 250 nM
Notes: 60-bp whole probe
Together with: salmon DNA 0.4 mg/ml
Baseline: random background probes
Reading: higher = stronger binding
Constant ends, left off below: GCCTAGCAC … GTCTTGATTCGCTTGACGCTGCTG
| Sequence | log fluorescence |
| --- | --- |
| TCATATATATAATATATAACTGTGCTA | 0.622 z-score |
| GACGGTTTCGGGACTGGGGACGTGCTA | 4.02 z-score |
| TGCTGTGTACATCTCTCTTAGTGCTAG | -0.629 z-score |
| TCATGTCTCCCCCATCTTACTGTGCTA | -0.314 z-score |
| GAGGGTTTCGGACTGGGGACGTGCTAG | 1.92 z-score |
| GACGGACTGGGCTATCGGGACGTGCTA | -0.831 z-score |
| TGATGACTGGAGTCTGGACTAGTGCTA | -0.828 z-score |
| GACCGACTGCTTATCCTGACGTGCTAG | -0.413 z-score |
| TTAGATATCATACTGGATTAGTGCTAG | -0.199 z-score |
| TATTGTCTCCCCCATCTTGTTGTGCTA | 0.182 z-score |
| CCTCCTTACTTTATGTAGGAGTGCTAG | 0.449 z-score |
| TTAGAACTGGGGTCTGGATTAGTGCTA | -0.467 z-score |
| TAACATATTCTCTTCTTGCAGTGCTAG | 0.754 z-score |
| TCCCTATTATATATATCATAGTGCTAG | 1.19 z-score |
| TTAGGACTGCTAATGCTTTAGTGCTAG | -0.481 z-score |
| TTAGAAATGGGGACTGGATTAGTGCTA | -0.181 z-score |
| GACCATTTCGGGTATCGAGACGTGCTA | 1.07 z-score |

Single results of other studies
| Substance | target | assay | test system | conditions | how to read | measurement | result |
| --- | --- | --- | --- | --- | --- | --- | --- |
| PhoQ, residues 284 288 289 292 302 303 SNSSNI | PhoP, residues 12 14 15 18 19 LHATL (Escherichia coli, UniProt P23836) | Sort-seq, measured: YFP reporter | E. coli | PhoQ-PhoP variant library, together with: 10 µM Mg2+ | baseline: high Mg2+ state, higher = stronger signaling | fold induction | 5.52 |

Repeated from above (block 6):
| Sequence | log fluorescence |
| --- | --- |
| TCATATATATAATATATAACTGTGCTA | 0.622 z-score |
| GACGGTTTCGGGACTGGGGACGTGCTA | 4.02 z-score |
| TGCTGTGTACATCTCTCTTAGTGCTAG | -0.629 z-score |
| TCATGTCTCCCCCATCTTACTGTGCTA | -0.314 z-score |
| GAGGGTTTCGGACTGGGGACGTGCTAG | 1.92 z-score |
| GACGGACTGGGCTATCGGGACGTGCTA | -0.831 z-score |
| TGATGACTGGAGTCTGGACTAGTGCTA | -0.828 z-score |
| GACCGACTGCTTATCCTGACGTGCTAG | -0.413 z-score |
